Results pooled from the literature.
A part holds a random share of what one study measured.

Series 1 — method: RNA Bind-n-Seq; molecule type: RNA; sample: in vitro; tested at: 365 nM; relative to: no-protein control; reading: higher = stronger binding
Target: RNA binding protein fox-1 homolog 2, RRM domain, GST-SBP tag (RBFOX2, Homo sapiens, UniProt O43251-10, residues 100-194)
Setting: natural RNA segment, single round, ends assumed
Residues (chain): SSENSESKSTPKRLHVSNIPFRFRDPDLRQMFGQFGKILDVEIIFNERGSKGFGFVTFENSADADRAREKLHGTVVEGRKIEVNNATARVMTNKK
`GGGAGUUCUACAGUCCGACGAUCCACCCAGUUCCGCUCAGGGCCAUACAGGCUUGCACAUAGAGUGUGCUAAAAAUGGUAACCUCCUUUGAGCAUUGCAGAAAGAGGGUUCUGUUUCAAAUUGGGCUGACCGUUGGAAUUCUCGGGUGCCAA` — result for “RBNS enrichment (R)”: 0.437.
For `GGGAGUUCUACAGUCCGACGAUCAGCAGACAUGGUGACCUGGUGGGAGACUUUAUUUAUCCAGUGUGGUGAUAGCAUGACCCUCCAUGCUUCUUACUGGUUAAUGCUAUUUCUCACAAUGAUGCAGAUUAGGAUGGAAUUCUCGGGUGCCAA`, “RBNS enrichment (R)” read 0.435.
For `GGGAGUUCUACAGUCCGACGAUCACACAUUUGCAUAUACCCACAUGGGGACAUAAGCUAAUUUUUUUACAGGACACAGAAUUCUGUUCAAUGCUGUUAAAUAUGCCAAUAGUUUAAUCUCUUCUAUUUUGUUGUGGAAUUCUCGGGUGCCAA`, “RBNS enrichment (R)” read 0.624.
`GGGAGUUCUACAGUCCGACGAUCUGACAAGGAUUUGAAAAAGACUGGCGAGGGAACGUGUCUGCUUAGCCGAGACUCCCAUACCUACUAUGCACGCACUGGCCCCCAACGACCAGCCCCCUAGGAACGUGUUAUGGAAUUCUCGGGUGCCAA`: “RBNS enrichment (R)” 2.18.
For `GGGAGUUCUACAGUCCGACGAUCUUGAUUCUUAACCCCAUGGACUCCUUUCCCUUUCUUCUCUGAAAAAAACUAAUUUAAAUUUGCUUUUCUUUUUUUUAACUGAGUUGAAUUGAGAUUGAUGUGUUUUCACUUGGAAUUCUCGGGUGCCAA`, “RBNS enrichment (R)” read 0.541.
`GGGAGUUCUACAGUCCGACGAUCUAUGUUUAAAAAGUAUGUUCUAAAAUUAUUAUAUAUACAUGGGUGAAUUAUGUUUCCGAGGCACUGUUUUAUCUCUGUGAAUCUUGAAUAACUUUUUUAUAUUUGGGUUAUGGAAUUCUCGGGUGCCAA` — result for “RBNS enrichment (R)”: 1.08.
`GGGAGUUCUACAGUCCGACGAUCGAUAGGGGUCGUUAUUGUAGCAUAUUUGGUUUCUAAAUCACUGCUUAUUUUUAUUUGCAAUCUCUAAAAACAAAUUUUAUUUCAAUUACGUCUUACUGAAGAAGUCUUUCUGGAAUUCUCGGGUGCCAA` — result for “RBNS enrichment (R)”: 0.306.
Under “RBNS enrichment (R)”, `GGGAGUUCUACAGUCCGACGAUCGGUGCAGGCCACCAACAGCAGCGUCUACCAGGUUUUGUGCCUUAACAGUCUCAAGGGCUGAAGCCCAUUCAUUUUAUAAGCUGUCACCAUGGGCUGCUGCUUCCUCUUGCUGGAAUUCUCGGGUGCCAA` is recorded as 0.247.

Series 2 — method: protein-binding microarray; molecule type: double-stranded DNA, one strand shown; sample: in vitro; tested at: 250 nM; setting: 60-bp whole probe; added: salmon DNA 0.4 mg/ml; relative to: random background probes; reading: higher = stronger binding; constant ends, left off below: GCCTAGCAC … GTCTTGATTCGCTTGACGCTGCTG
Target: Interferon regulatory factor 5, full length, phosphomimetic (IRF5, Homo sapiens, UniProt Q13568-2, residues 1-514, K96S/S451D/S453D/S456D/S462D)
`TTAGGTCTCGGTTTCTGTTAGTGCTAG` has a log fluorescence of 3.36 z-score.
For `GATGATTTCGGGTTTCGAGACGTGCTA`, the log fluorescence was 5.94 z-score.
The log fluorescence of `AACGGTATCGGTTTCGGGACGTGCTAG` is reported as 8.77 z-score.
The log fluorescence of `TTAGAACTGAGACTGGAGTAGTGCTAG` is reported as -0.371 z-score.
The log fluorescence of `GACGAACTGATTATCGAGACGTGCTAG` is reported as 1.41 z-score.
With `TTTGGTATCGGGTTTCGGTTAGTGCTA` the log fluorescence was 9.21 z-score.
With `CCAGTTTTGTGTGTGTGTTTGTGCTAG` the log fluorescence was 0.707 z-score.
`GACGGTTTCCACTATCGGGACGTGCTA` gave a log fluorescence of 2.64 z-score.
The log fluorescence of `TCACCCCTTGCTTTCCAACTGTGCTAG` is reported as 0.128 z-score.
`TCATATTTAAGCTCCTATACTGTGCTA` gave a log fluorescence of 0.398 z-score.
`CACAACCAAACAAGAAGATGGTGCTAG` has a log fluorescence of 0.0449 z-score.
With `TTAGGTTTCGGACTGAGTTAGTGCTAG` the log fluorescence was 5.36 z-score.
For `TTAGGACTGGATTATCGGTTAGTGCTA`, the log fluorescence was 4 z-score.
The log fluorescence of `TTAGGACTGGGGTTTCGGTTAGTGCTA` is reported as 6.01 z-score.
For `GACGGACTGCTTTTCCTGAGGTGCTAG`, the log fluorescence was -0.303 z-score.
`TTAGGTATCGGTTTGGGTTAGTGCTAG` gave a log fluorescence of 7.68 z-score.

Series 3 — method: RNA Bind-n-Seq; molecule type: RNA; sample: in vitro; tested at: 1 µM; setting: whole 134-nt RNA, ends assumed; added: 150 mM KCl; relative to: input library; reading: higher = stronger binding
Target: Ras GTPase-activating protein-binding protein 1, RRM domain (G3BP1, Homo sapiens, UniProt Q13283)
Sequence of UniProt Q13283 (whole entry, looked up): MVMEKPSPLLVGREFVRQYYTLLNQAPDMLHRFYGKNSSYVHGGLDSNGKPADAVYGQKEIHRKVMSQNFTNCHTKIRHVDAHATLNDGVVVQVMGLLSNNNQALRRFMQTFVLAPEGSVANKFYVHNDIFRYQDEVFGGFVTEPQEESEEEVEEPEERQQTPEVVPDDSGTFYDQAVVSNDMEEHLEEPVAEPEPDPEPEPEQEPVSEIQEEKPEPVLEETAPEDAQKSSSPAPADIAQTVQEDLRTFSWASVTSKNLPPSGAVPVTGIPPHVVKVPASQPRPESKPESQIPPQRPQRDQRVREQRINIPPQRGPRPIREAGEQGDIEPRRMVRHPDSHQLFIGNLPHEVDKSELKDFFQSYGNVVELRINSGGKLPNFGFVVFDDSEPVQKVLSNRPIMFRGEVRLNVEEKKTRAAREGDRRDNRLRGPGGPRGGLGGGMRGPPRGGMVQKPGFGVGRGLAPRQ
`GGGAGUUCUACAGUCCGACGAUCAAGUCCUGUGCUACACAUCGUAUGUACCGAAUCGGCCCCGGGCCCCGGGCCCCGGGGAAAGUAUUAUGUUACGCCGUUCGGAUCUGCACUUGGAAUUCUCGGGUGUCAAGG` has a log2 enrichment of -0.779.
With `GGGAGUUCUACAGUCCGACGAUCCUCAAGUCCUGUGCUACACAUCGUAUGUACCGAAUCGGAAAAAGGUUUGGAGGAAAGUAUUAUGUUACGCCGUUCGGAUCUGCACUUCCAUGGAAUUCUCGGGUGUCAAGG` the log2 enrichment was -0.217.
For `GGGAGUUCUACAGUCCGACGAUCUCAAGUCCUGUGCUACACAUCGUAUGUACCGAAUCGGGAAAGGAAAGGGAAAGGGAAAGUAUUAUGUUACGCCGUUCGGAUCUGCACUUCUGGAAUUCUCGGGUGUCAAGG`, the log2 enrichment was -0.169.
With `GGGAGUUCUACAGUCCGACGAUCGUCCUGUGCUACACAUCGUAUGUACCGAAUCAAAUUUAAAUUUUUUUAAAUUUUUAAAAAAGUAUUAUGUUACGCCGUUCGGAUCUGCACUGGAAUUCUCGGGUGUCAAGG` the log2 enrichment was -0.71.
For `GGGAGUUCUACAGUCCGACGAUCGCAGGAAGUAAAAACAAGUGGAAAUGCUUCGGAUAGUGGCAGGGGUGGGGGUUGCUAAGGAAAGGGUGGGAUGGGAGUGGGUAAAGAGUUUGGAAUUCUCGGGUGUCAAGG`, the log2 enrichment was 1.06.
The log2 enrichment of `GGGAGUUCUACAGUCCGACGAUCGCAGGAAGUAAAAACAAAUGGAAAUGCUUCGGAUAGUGGCAGGGGUGGGGGUUGCUAAGGACAGGGUGGGAUGGGAGUGGGUAAAGAGUUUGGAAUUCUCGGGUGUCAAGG` is reported as 0.795.
The log2 enrichment of `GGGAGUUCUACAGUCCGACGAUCUCCUGUGCUACACAUCGUAUGUACCGAAUCGGGAAAAAAGGGGAAAAAAGGGAAAAAAGGAAAGUAUUAUGUUACGCCGUUCGGAUCUGCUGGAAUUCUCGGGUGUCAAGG` is reported as 0.00164.
With `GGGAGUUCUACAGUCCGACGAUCACCAUGCAGGUGGGCAUCUUUGGGAAGUGGGGCAAGGGGGGGAUAGGGAGGGGGGUAACACUUUGGGAACAGGAGGUCCCAGGUCGUUUCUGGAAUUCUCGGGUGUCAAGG` the log2 enrichment was 0.977.
For `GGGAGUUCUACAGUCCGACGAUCGUCCUGUGCUACACAUCGUAUGUACCGAAUCGGGGUUUUUUUGGGGUGGGGAAAGGGGAAAGUAUUAUGUUACGCCGUUCGGAUCUGCACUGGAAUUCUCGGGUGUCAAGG`, the log2 enrichment was 1.21.

Series 4 — method: RNA Bind-n-Seq; molecule type: RNA; sample: in vitro; tested at: not given; relative to: input RNA pool; reading: higher = stronger binding
Target: RING finger protein unkempt homolog, zinc fingers 1-6, GST-SBP tag (UNK, Homo sapiens, UniProt Q9C0B0, residues 30-357)
Sequence of UniProt Q9C0B0 (30-357, looked up): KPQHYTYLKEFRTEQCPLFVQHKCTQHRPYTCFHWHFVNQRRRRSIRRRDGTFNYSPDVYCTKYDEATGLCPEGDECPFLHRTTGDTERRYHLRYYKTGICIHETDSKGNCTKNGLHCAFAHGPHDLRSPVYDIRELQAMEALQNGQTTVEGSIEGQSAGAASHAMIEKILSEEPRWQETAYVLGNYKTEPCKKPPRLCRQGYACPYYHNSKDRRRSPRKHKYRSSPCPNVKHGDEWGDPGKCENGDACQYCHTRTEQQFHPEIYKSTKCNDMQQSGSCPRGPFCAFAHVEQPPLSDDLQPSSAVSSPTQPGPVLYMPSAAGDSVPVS
Setting: RNA with constant flanks, human and mouse sites, ends assumed
`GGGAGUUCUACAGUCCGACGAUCAUCAUGGAUAAAAACACACUAGGGAGUGAUUUGCCCCGGAUCAAAACGGAGAUUGAGGCCUUGAAGAACCUGAGACAUCAGCAUAUAUGUCAACUCUACCAUGUGCUAGAGACAGCCAACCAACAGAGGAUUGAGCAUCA` gave a bound/input enrichment of 0.248 ratio.
`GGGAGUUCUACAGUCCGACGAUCGGCAUGCAUGGAGGUGGUCCUGGUGGUCCUGGAGGUGGCCCCCACAGCUUCCCACACCCAUUACCCAGCCUGACAGGUGGGCAUGGUGGGCAUCCCAUGCAGCACAACCCAAAUGGACCACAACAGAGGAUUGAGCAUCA` gave a bound/input enrichment of 0.121 ratio.
`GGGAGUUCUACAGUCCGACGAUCCAUGUGACAAAAUUUUUUAACUAUAAGGUUGUACUGCUGGGAAAAUACAAUGCACAGGGCUUAGGUUCAGAUCAUGAAUUAAUGCUGAGAUGUACCAAAGGACGAGAAUACAUCAAAGUCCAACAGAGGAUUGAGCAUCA` has a bound/input enrichment of 0.228 ratio.
With `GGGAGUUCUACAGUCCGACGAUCAUCGUCAAUGAUGAUCAGUCCUUUUAUGCUGAUAUUUACAUGGAAGAUGGCUUAAUAAAACAAAUUGGAGACAAUCUGAUUGUUCCUGGAGGAGUGAAGACCAUUGAAGCCAAUGGGAAGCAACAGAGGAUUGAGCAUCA` the bound/input enrichment was 0.245 ratio.
`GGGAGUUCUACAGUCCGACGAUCGAUCAGAAGAGGAAAGAAAGAAAAGCUCAGAGGCAAGCAGCAAAGAAUCAAAUGUAUGAUGAUUACUACUAUUAUGGUCCACCUCAUAUGCCUCCCCCAACAAGAGGUCGAGGGCGUGGACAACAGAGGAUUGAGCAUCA` has a bound/input enrichment of 0.397 ratio.
The bound/input enrichment of `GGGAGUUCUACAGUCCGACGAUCGGACGAGAGCCUCUUACUUACUAUGACAUGAAUCUCUCUGCCCAAGACCACCAGACAUUCUUUACUUGUGACUCGGACCAUCUGCGUCCCGCAGAUGCAAUAAUGCAGAAAGCCUGGAGACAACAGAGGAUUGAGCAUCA` is reported as 0.314 ratio.
With `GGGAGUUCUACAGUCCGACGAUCUGGUCCUCGGUUGCUCGUCAUGCAAGUGCUAUUUCCCGGAGUAUUUCUGCCUCAACAGUUCUUAGGCCUGUUGCUUCUAGAAGAACCUGUUUGACAGACAUACUGUGGUCUGCCUCUGCCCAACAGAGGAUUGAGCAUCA` the bound/input enrichment was 0.173 ratio.
`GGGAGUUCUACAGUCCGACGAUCGUUUUAUUACUGCUUGGAGAUGAGUCCAUGCAGAAACUUUUUGAAGGAGGAAAAGGCAGUGUGUUCCAAAGGGUGCUCUCCUGGAUCCCAUCGAAUAACCACCAGCUGCAGCUGGCUGGGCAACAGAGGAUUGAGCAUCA` has a bound/input enrichment of 0.226 ratio.
